Measurements collected from several papers.
Every numbered part comes from another study and shows a few of its results, in no order.

Sample 1 — method: RNA Bind-n-Seq; form: RNA; sample: in vitro; concentration: not given; notes: RNA with constant flanks, ends assumed; relative to: input RNA pool; direction: higher = stronger binding
Target: RING finger protein unkempt homolog, zinc fingers 1-6, GST-SBP tag (UNK, Homo sapiens, UniProt Q9C0B0, residues 30-357)
UniProt Q9C0B0, sequence (30-357, looked up): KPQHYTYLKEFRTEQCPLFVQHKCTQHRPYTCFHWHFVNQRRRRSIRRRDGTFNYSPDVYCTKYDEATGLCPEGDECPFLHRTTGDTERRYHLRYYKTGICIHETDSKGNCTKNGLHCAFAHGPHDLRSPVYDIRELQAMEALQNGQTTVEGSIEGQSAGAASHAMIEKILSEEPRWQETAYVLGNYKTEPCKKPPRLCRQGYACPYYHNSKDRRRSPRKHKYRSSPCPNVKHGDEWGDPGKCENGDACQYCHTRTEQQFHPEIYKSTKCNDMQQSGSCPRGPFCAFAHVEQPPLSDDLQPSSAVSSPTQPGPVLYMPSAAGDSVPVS
`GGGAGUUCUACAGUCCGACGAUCAAGGAACUGCAGGUUGAACUGUCUGGCUGAAGCAAUGGCGGGUAUGGCAAGCCCCUCCCACCGUAAAUCCCCCUGCCUAUAUUAUAAUGGAUCAUGCGAUAUCAGUAUGGGAAGUGUAUGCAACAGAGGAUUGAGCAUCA` has a bound/input enrichment of 0.221 ratio.
With `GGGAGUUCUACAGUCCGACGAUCUGCCCAUCUUAGGUUGCGGUGACCGAGGUUUGUGAGGUUUUCCUUGUUUGAGAUAAAUUCCCGCAUUUGCUUUAUCAUAUACUCCUCCUGUGUGAGCGUGGAAAAGUUUAGAAUUGUAUGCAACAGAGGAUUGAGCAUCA` the bound/input enrichment was 0.535 ratio.
With `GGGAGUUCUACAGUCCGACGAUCGAAGCAGCAGCACUGCUAGAAAGUGGCAGUUCAGUGGGAGACGAGACCGAUCUUGCUAAUUCCGGUGAUGUGGCUUCUGAUGGGAAAAAGGAACCAUCAGAUAAAGCUGUGAAAAAAGAUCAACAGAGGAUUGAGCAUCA` the bound/input enrichment was 0.16 ratio.
`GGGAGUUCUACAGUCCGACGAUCUUUGUUUUCAUGUUAAGCACGCGUGCUGGUGGUCUUGGCAUCAAUCUUGCGACUGCUGAUGCCGUAAUUUUGUAUGAUUCUGAUUGGAAUCCCCAAGUAGAUCUUCAGGCUAUGGACCGACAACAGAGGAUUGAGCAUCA` gave a bound/input enrichment of 0.211 ratio.
`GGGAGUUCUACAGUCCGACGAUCGGGAACAACAAUCAAAGUAAACCAGGCUUCCUGAGGAAGAAUCAUUAUACAAACACCAAACCCGAGGUGAAAAAAAUCCCCCAGGAAUUGAACAACAUUACCAAGCUCAACGAACACUUCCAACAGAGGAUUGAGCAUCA` gave a bound/input enrichment of 0.169 ratio.
The bound/input enrichment of `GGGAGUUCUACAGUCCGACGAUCAACCACUGACGUGUUUUUAUUUCCUUCUAUAUGAUUUUAAGAUGUGUUUUCUGCAUUCUGUACCGAAACAUAUCAAACUAAAUAAAAGCAGUGUCUUUAUUACAAUGUCAUUGCCUCUGACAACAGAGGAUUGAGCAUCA` is reported as 0.146 ratio.
With `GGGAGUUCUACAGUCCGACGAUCCAGAUUCCCAGCCUUUCAGCCAACCGUUCUCUCACAGAAGGCCUUGUCCUGGACACAAUGAAUGACCGCCUCAGCAAGAUCCUUCUAGACAUCAGUUUCCCUGGCCUGGAGGAGGACCCUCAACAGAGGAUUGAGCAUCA` the bound/input enrichment was 0.186 ratio.
The bound/input enrichment of `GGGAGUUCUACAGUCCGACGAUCUCAAGCUGUGCUGUAAAUAUCAUUUAGACCUAUUGAGAAUUAACAGCAAAUCUGAGCUACUUCCGUGUUACCAACUAUUAGUCUGCUGACUGUUUCUAUAACAAAAUACCUGAGACAAUCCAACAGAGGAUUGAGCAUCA` is reported as 0.769 ratio.

Sample 2 — method: aptamer microarray, sandwich; form: DNA with 2'F-ANA; sample: in vitro; concentration: 200 nM; together with: Cy3 exosite-II aptamer, 400 nM; direction: higher = stronger binding; oligonucleotide: GGTTGGTGTGGTTGG
Target: Prothrombin, mature alpha-thrombin (F2, Homo sapiens, UniProt P00734)
Notes: whole 15-mer aptamer, many near background
Under “mean fluorescence intensity”, `2'F-ANA at 1 4 6 7 9 10 12 13` is recorded as 55.2 a.u.
Under “mean fluorescence intensity”, `2'F-ANA at 1 7 8 9 12 13 15` is recorded as 395 a.u.
Under “mean fluorescence intensity”, `2'F-ANA at 1 4 5 10 11 12 14 15` is recorded as 50 a.u.
Under “mean fluorescence intensity”, `2'F-ANA at 4 5 7 8 10 11 12` is recorded as 57.1 a.u.
Under “mean fluorescence intensity”, `2'F-ANA at 1 2 4 5 8 14` is recorded as 43.9 a.u.
`2'F-ANA at 1 2 3 5 6 7 10 11 15`: “mean fluorescence intensity” 173 a.u.
`2'F-ANA at 3 5 6 10 11 14 15`: “mean fluorescence intensity” 50.5 a.u.
`2'F-ANA at 2 3 6 7 9 10 12 13 15` — result for “mean fluorescence intensity”: 372 a.u.
`2'F-ANA at 2 3 4 5 6 10 11 12 15`: “mean fluorescence intensity” 60.2 a.u.
Under “mean fluorescence intensity”, `2'F-ANA at 1 4 7 8 9 12 15` is recorded as 337 a.u.
`2'F-ANA at 1 7 8 10 12 15` — result for “mean fluorescence intensity”: 75.5 a.u.
`2'F-ANA at 2 3 4 8 11 12 13 14 15` — result for “mean fluorescence intensity”: 329 a.u.
For `2'F-ANA at 1 5 6 7 11 13 14 15`, “mean fluorescence intensity” read 46.3 a.u.
For `2'F-ANA at 1 5 6 7 11 12 13 14`, “mean fluorescence intensity” read 46 a.u.
`2'F-ANA at 3 4 5 6 8 9 11 12 14` — result for “mean fluorescence intensity”: 97.3 a.u.
Under “mean fluorescence intensity”, `2'F-ANA at 2 3 4 5 7 9 10 12 13 14 15` is recorded as 45.7 a.u.
Under “mean fluorescence intensity”, `2'F-ANA at 1 2 3 4 5 7 9 10 12 13 14` is recorded as 46.6 a.u.
`2'F-ANA at 1 2 8 9 14 15`: “mean fluorescence intensity” 57.9 a.u.
`2'F-ANA at 3 4 6 10 12 13 14`: “mean fluorescence intensity” 222 a.u.
`2'F-ANA at 1 2 3 7 12 13 15` — result for “mean fluorescence intensity”: 402 a.u.
`2'F-ANA at 3 5 7 9 11 13 14 15` — result for “mean fluorescence intensity”: 54.1 a.u.
Under “mean fluorescence intensity”, `2'F-ANA at 3 5 6 7 8 9 10 12 15` is recorded as 64.4 a.u.
Under “mean fluorescence intensity”, `2'F-ANA at 1 5 7 8 9 10 11 14 15` is recorded as 49.1 a.u.
`2'F-ANA at 2 4 5 6 7 8 9 10 11 13 14 15`: “mean fluorescence intensity” 143 a.u.

Sample 3 — method: RNA Bind-n-Seq; form: RNA; sample: in vitro; concentration: 365 nM; relative to: no-protein control; direction: higher = stronger binding
Target: RNA binding protein fox-1 homolog 2, RRM domain, GST-SBP tag (RBFOX2, Homo sapiens, UniProt O43251-10, residues 100-194)
Notes: natural RNA segment, single round, ends assumed
`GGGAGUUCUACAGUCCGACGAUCUGCAUCUUAGACCUCUUGAGCUGUGAAUUAGCACUAUUUUCUAUGGUUACUUAUUAUCUAUUGUUUUAUACUUUCUAUGUUCAUUUCAAAUAAUGUUAAUGUUAUUCAAUUGGAAUUCUCGGGUGCCAA` — result for “RBNS enrichment (R)”: 1.17.
`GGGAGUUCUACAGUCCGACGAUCGGCAACGGAAGUCUUUUAGUGAUGGCUAAUGGGUCUGGGCAGCAUCCCUUCAUGAAUUUUUUUUUAAUCCAAUAUCCGUUGAUUUGAUUGUGAUUAGAGAACCUUGGACAUGGAAUUCUCGGGUGCCAA`: “RBNS enrichment (R)” 1.08.
Under “RBNS enrichment (R)”, `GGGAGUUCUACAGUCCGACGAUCAUGUUUCAGAUGUUUAUUUGUAUAAUUACUUGAUUCACACAGUGAGAAAAAAUGAAUGUAUUCCUGUUUUUGAAGAGAAGAAUAAUUUUUUUUUUCUCUAGGGAGAGGUAUGGAAUUCUCGGGUGCCAA` is recorded as 0.545.
`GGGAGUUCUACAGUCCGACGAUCUUCUCCUCACCAGCAUGGUACCUGCCCUUACUGCUAGAGCAGCUGCUUGUAGAGGGACAUUCCCUCCUUCCCAGUUUUAACUGGUGGACCACAGUGGGGGGAAAAACAUUUGGAAUUCUCGGGUGCCAA` — result for “RBNS enrichment (R)”: 0.364.
Under “RBNS enrichment (R)”, `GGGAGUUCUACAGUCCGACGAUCCCAGUGUUUACAGCCUUGCUUUCCUCCCACCGACCCUGGCCCCAGGCUGCCCCGGGCCUGGCGGGCCACCCCUCUCUAUGCAAACACGUAAAAGCCAUGAAUGCUGGAAUUGGAAUUCUCGGGUGCCAA` is recorded as 0.866.
`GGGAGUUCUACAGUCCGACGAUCAUAUAAAAGGUAAGACAGAGUUUGCAAAGCAUUUGUGGCUUUUUGUAGUUUACUUAAGCCAAAAUGUGUUUUUUUCCCCUUGAUAGCUUCGCUAAUAUUUUAAACAGUCCUGGAAUUCUCGGGUGCCAA` — result for “RBNS enrichment (R)”: 0.735.
`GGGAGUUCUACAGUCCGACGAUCUUCUGAAUGUAAGGGAUUAAGAUAUCAGCUGUAAACUUAACUUUGUCUCCGAAUCUGAGAAUUCGAAAGAAAGCUAUGCUCAGUCUCUGUACAUGCUGAACUCCAAAUUCUGGAAUUCUCGGGUGCCAA`: “RBNS enrichment (R)” 0.452.
Under “RBNS enrichment (R)”, `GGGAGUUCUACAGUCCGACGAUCCUCAACUCUCAAUAUUGCUUUAUCAGCAUCUUUUCUCUGUAGCUCCAGGGGAAUCUUUUCUCUAAAACAUUUAUGCCCUUGCUUUGGCUAGAAACACAUUAACUGGUUUAUGGAAUUCUCGGGUGCCAA` is recorded as 0.415.

Sample 4 — method: protein-binding microarray; form: double-stranded DNA, one strand shown; sample: in vitro; concentration: not given; direction: higher = stronger binding
Target: Max dimerization protein 1, bHLH-zipper, MAX partner unstated (MXD1, Homo sapiens, UniProt Q05195, residues 56-136)
Notes: k-mer, scored over probes, only values ≥0.25
Residues (chain): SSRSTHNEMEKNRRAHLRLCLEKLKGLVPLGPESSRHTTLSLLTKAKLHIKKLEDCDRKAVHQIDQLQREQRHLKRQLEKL
For `ACTCGTGA`, the E-score was 0.301.
`GACACGCA` gave an E-score of 0.274.
The E-score of `CGTGTATC` is reported as 0.349.
For `ACCCCGCC`, the E-score was 0.363.
For `ACCCGCCA`, the E-score was 0.31.
`ACCACCAC` gave an E-score of 0.271.
The E-score of `CCCGTGAC` is reported as 0.279.
`CATGCGGA` gave an E-score of 0.419.
The E-score of `CGTGGCGC` is reported as 0.263.
`AGCATGCT` gave an E-score of 0.401.
For `CGTTATCC`, the E-score was 0.26.
`GCATGTAA` has an E-score of 0.301.
The E-score of `ATGGGGTG` is reported as 0.292.
`ACTCTCCC` has an E-score of 0.257.
For `AACACGAG`, the E-score was 0.422.
`ACGTGCGG` has an E-score of 0.405.
With `ACGCATGA` the E-score was 0.329.
`CGTGATAA` has an E-score of 0.279.

Some of these lines once more (sample 2):
Under “mean fluorescence intensity”, `2'F-ANA at 1 2 4 5 8 14` is recorded as 43.9 a.u.
Under “mean fluorescence intensity”, `2'F-ANA at 4 5 7 8 10 11 12` is recorded as 57.1 a.u.
`2'F-ANA at 1 2 3 5 6 7 10 11 15`: “mean fluorescence intensity” 173 a.u.
`2'F-ANA at 3 4 5 6 8 9 11 12 14` — result for “mean fluorescence intensity”: 97.3 a.u.
